Experimental data pooled from the literature.
Each numbered part is a random draw from the data of one study; scales do not carry over between parts. Several values in a cell are separate wells, animals, samples, runs or records.

Study 1
Target: DNA polymerase theta, ATPase domain (POLQ, Homo sapiens, UniProt O75417)
Sequence of UniProt O75417 (whole entry, unmodified, looked up): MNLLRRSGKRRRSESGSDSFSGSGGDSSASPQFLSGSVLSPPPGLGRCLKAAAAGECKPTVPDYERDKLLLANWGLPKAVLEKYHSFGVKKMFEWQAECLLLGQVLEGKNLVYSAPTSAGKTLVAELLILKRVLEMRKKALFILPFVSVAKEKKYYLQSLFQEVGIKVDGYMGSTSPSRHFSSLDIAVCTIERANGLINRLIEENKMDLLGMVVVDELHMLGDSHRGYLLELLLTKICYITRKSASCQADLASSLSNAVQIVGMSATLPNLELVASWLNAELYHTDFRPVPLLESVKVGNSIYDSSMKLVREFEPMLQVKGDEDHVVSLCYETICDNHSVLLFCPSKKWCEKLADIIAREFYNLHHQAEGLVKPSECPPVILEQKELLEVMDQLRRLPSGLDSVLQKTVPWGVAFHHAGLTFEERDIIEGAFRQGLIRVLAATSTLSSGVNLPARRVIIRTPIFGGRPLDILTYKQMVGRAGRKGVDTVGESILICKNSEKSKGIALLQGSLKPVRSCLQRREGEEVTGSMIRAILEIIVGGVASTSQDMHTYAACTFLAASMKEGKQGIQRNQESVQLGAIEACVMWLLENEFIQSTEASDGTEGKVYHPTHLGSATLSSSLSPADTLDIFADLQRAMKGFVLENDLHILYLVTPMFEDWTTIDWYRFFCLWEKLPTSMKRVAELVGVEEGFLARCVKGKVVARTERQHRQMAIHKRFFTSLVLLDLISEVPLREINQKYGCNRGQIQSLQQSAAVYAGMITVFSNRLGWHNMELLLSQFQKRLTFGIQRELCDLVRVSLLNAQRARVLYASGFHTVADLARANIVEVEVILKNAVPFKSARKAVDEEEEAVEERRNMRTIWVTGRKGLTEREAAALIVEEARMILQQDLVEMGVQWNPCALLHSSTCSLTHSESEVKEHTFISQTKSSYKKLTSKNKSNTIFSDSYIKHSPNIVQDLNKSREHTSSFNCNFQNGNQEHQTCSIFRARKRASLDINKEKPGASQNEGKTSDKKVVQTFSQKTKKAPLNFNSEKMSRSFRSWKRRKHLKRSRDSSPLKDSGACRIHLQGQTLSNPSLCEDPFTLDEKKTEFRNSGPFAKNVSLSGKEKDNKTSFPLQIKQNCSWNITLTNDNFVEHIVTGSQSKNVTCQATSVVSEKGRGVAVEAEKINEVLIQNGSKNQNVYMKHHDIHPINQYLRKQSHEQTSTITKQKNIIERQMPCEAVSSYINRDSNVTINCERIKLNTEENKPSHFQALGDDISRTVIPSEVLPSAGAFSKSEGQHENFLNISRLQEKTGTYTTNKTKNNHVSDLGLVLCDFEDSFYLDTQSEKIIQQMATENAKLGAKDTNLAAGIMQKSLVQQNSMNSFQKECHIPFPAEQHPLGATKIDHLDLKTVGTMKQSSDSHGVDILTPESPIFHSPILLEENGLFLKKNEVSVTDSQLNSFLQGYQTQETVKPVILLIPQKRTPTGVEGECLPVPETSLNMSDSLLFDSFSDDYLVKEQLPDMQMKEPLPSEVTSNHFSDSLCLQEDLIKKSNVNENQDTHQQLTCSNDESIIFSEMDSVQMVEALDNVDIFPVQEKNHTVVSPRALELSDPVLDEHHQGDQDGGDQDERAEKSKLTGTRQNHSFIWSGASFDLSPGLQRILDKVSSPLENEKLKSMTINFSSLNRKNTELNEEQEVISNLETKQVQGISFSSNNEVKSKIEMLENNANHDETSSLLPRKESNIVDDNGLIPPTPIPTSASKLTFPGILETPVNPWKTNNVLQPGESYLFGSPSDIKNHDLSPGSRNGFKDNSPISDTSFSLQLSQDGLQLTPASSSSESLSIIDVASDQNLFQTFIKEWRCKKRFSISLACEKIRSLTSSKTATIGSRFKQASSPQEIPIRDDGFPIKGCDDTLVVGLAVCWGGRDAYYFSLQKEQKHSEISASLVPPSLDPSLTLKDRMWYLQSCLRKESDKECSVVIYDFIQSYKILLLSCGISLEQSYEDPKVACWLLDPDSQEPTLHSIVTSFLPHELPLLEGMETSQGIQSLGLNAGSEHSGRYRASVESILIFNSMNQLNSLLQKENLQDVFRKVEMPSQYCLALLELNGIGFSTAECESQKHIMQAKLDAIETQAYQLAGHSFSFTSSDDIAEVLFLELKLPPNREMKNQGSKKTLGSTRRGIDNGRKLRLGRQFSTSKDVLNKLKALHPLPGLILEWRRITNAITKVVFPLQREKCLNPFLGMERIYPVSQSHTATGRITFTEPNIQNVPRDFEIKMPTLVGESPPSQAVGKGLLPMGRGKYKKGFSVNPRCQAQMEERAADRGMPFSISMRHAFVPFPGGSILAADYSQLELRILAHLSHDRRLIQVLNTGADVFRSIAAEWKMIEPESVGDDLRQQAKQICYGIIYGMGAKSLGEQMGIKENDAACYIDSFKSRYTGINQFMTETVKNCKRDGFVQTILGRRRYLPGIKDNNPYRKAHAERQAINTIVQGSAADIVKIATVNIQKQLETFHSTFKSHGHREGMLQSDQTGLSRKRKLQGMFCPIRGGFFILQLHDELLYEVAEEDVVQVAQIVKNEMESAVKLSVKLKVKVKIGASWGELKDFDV
Read-out: enzyme activity
Mode: inhibitor
Tested at: 77 µM
Relative to: untreated
`COC(=O)Nc1nc2cc(Sc3ccccc3)ccc2[nH]1` gave a remaining activity of 99.7% and 94.3%.
`Cc1ccc(C(=O)C(C)CN2CCCCC2)cc1` (stereo not drawn) has a remaining activity of 107%.
`CC(C(=O)O)c1ccc(C(=O)c2cccs2)cc1` (stereo not drawn) has a remaining activity of 89% and 108%.
For `O=C(O)CCCc1ccccc1`, the remaining activity was 101%.
For `CS(=O)(=O)c1ccc(C2=C(c3ccccc3)C(=O)OC2)cc1`, the remaining activity was 105%.
For `CC1(C)S[C@@H]2[C@H](NC(=O)[C@H](N)c3ccccc3)C(=O)N2[C@H]1C(=O)OC1OC(=O)c2ccccc21` (stereo partly drawn), the remaining activity was 99.9%.

Study 2
Target: Alpha-2A adrenergic receptor (ADRA2A, Homo sapiens, UniProt P08913)
Sequence of UniProt P08913 (whole entry, looked up): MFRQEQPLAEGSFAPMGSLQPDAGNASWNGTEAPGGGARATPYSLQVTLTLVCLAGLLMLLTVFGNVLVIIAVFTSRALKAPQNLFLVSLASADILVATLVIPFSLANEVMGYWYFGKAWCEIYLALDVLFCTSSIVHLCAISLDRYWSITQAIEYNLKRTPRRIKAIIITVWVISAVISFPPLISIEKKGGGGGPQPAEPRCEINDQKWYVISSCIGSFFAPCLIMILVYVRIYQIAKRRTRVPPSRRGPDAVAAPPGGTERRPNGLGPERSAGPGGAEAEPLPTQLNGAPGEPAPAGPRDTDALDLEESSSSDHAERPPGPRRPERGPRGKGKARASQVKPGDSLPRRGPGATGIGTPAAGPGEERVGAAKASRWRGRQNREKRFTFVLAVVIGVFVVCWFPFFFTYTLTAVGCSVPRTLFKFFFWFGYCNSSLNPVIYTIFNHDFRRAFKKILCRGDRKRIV
Read-out: ligand displacement
Tested at: 10 µM
`CN(C)C(=O)c1sc2nc(N3CCC(S(C)(=O)=O)CC3)cc(C(F)(F)F)c2c1N` has an inhibition of 13%.
The inhibition of `Cc1ccc(-c2cnc([C@@]3(O)CC[C@H](C(=O)O)C(C)(C)C3)s2)cc1Nc1cccc(C(F)(F)F)n1` is reported as 34.5%.
With `COCCOc1nc(-c2ccc(Cl)nc2)nc2c1CN(C(=O)c1ncn3ccccc13)CC2` the inhibition was -10.2%.
For `NS(=O)(=O)c1cc(NC(=O)Cc2ccccc2)ccc1Oc1cccc(Cl)c1`, the inhibition was 6.31%.
With `CO[C@H]1CC[C@H](CNc2ccc(S(=O)(=O)NC(=O)c3ccc(N4CCN(CC5=C(c6ccc(Cl)cc6)CC(C)(C)CC5)CC4)cc3Oc3cnc4[nH]ccc4c3)cc2[N+](=O)[O-])CC1` the inhibition was 12.5%.
`N#CC1(c2ccccn2)CCN(Cc2cc(C(=O)N3CCCC3)c(=O)n3ccccc23)CC1` gave an inhibition of -15.7%.
For `CC(=O)Nc1ncc(CN2CCC[C@H](Cc3cc(C)nc(C)c3)C2)s1`, the inhibition was 8.68%.
With `O=C(NS(=O)(=O)c1ccc(NCC2CCOCC2)c([N+](=O)[O-])c1)c1ccc(N2CCN(Cc3ccc(C(F)(F)F)cc3-c3ccc(Cl)cc3)CC2)cc1Oc1cnc2[nH]ccc2c1` the inhibition was 9.67%.
With `Nc1cnc(N2CCc3cc(S(=O)(=O)Nc4c(F)cc(Cl)cc4F)cc(N4CCCC4=O)c32)nc1` the inhibition was -10.1%.
`O=c1nc(-c2ccccn2)sc2ccccc12` gave an inhibition of 0.132%.
For `CS(=O)(=O)N1CCCC(NC(=O)[C@H](CCC2CCCCC2)NC(=O)c2ccc(CNC(=O)c3cnc4ccccn34)cc2)C1` (stereo partly drawn), the inhibition was 7.22%.
The inhibition of `Cn1nc(C(=O)NCc2ccc(C(=O)O)cc2)cc1-c1ccc2[nH]ccc2c1` is reported as -14.2%.
`COc1ccc2cc(OCC3(C(=O)O)CN(C(=O)c4ccc(F)cc4)C3)ccc2c1` has an inhibition of 21.8%.
`Cc1cc(Nc2nccc(C)n2)cc(-c2cnc([C@@]3(O)CC[C@H](C(=O)O)C(C)(C)C3)s2)c1` has an inhibition of -2.14%.
With `O=C(NCCCC1CCCCC1)c1ccc(CNC(=O)c2cnn(-c3ccccc3)c2C(F)(F)F)cc1` the inhibition was -2.46%.

Study 3
Target: Calcium/calmodulin-dependent protein kinase type II subunit alpha (CAMK2A, Homo sapiens, UniProt Q9UQM7)
Sequence of UniProt Q9UQM7 (whole entry, looked up): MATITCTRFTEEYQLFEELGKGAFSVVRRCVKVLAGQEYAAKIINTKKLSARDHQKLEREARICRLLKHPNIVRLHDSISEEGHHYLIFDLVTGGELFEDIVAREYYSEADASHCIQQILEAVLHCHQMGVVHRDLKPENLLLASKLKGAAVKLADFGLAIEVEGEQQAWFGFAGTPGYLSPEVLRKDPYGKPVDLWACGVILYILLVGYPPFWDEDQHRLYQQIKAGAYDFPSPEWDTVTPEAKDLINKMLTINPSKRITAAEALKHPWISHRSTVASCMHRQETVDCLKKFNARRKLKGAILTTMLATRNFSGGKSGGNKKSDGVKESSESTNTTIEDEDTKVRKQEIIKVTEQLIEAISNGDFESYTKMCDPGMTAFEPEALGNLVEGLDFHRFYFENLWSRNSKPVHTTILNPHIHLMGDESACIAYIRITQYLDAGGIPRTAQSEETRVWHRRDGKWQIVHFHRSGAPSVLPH
Read-out: enzyme activity
Mode: inhibitor
Tested at: 10 µM
`O=c1c2ccccc2nc2n1CCc1c-2[nH]c2ccccc12` has an inhibition of 9%.
For `CC(=O)OC[C@H]1O[C@@H](OC(C)=O)[C@H](OC(C)=O)[C@@H](OC(C)=O)[C@@H]1OC(C)=O`, the inhibition was -8%.
`C[C@@H]1O[C@@H](O[C@H]2[C@H](Oc3c(-c4ccc(O)cc4)oc4cc(O)cc(O)c4c3=O)O[C@H](CO)[C@@H](O)[C@@H]2O)[C@H](O)[C@H](O)[C@H]1O` has an inhibition of -0.3% and 0.01%.
`CCCCCCCCCCCCCCCCCCCCCCCCC` has an inhibition of 13%.
The inhibition of `Nc1ccc(O)c(C(=O)O)c1` is reported as 21%.
The inhibition of `C[C@@H]1CC[C@]2(C(=O)O[C@@H]3O[C@H](CO)[C@@H](O)[C@H](O)[C@H]3O)CC[C@]3(C)C(=CC[C@@H]4[C@@]5(C)CC[C@H](O)[C@](C)(C(=O)O)[C@@H]5CC[C@]43C)[C@@H]2[C@]1(C)O` is reported as 0%.
With `C[C@@H]1C(=O)O[C@H]2[C@@H](O)[C@@]34[C@H]5C[C@@H](C(C)(C)C)[C@]36[C@@H](OC(=O)[C@@H]6O)O[C@@]4(C(=O)O5)[C@@]12O` the inhibition was -18%.

Study 4
Organism: Sarcocystis neurona
Read-out: parasite growth
Tested at: 10 µM
Time: 96 h
Setting: first screen
Relative to: untreated
Under “log2 fold change”, `NCC(=O)CCC(=O)O` is recorded as 0.23.
`CCOC(=O)c1ncn2c1CN(C)C(=O)c1cc(F)ccc1-2` — result for “log2 fold change”: 0.45.
`CCc1nn(CCCN2CCN(c3cccc(Cl)c3)CC2)c(=O)n1CCOc1ccccc1`: “log2 fold change” -2.03.
`Cc1ccc(-c2cc(C(F)(F)F)nn2-c2ccc(S(N)(=O)=O)cc2)cc1` — result for “log2 fold change”: 0.07.
`COc1ccc(Cl)cc1C(=O)NCCc1ccc(S(=O)(=O)NC(=O)NC2CCCCC2)cc1`: “log2 fold change” 0.25.
`Cc1cccc(Nc2ccccc2C(=O)O)c1C`: “log2 fold change” 0.0556.
For `Cc1cn([C@H]2C[C@H](N=[N+]=[N-])[C@@H](CO)O2)c(=O)[nH]c1=O`, “log2 fold change” read 0.19.
`CC(C)(C)NC(=O)[C@H]1CC[C@H]2[C@@H]3CC[C@H]4NC(=O)C=C[C@]4(C)[C@H]3CC[C@]12C` — result for “log2 fold change”: -1.16.

Some of these lines once more (study 3):
For `CC(=O)OC[C@H]1O[C@@H](OC(C)=O)[C@H](OC(C)=O)[C@@H](OC(C)=O)[C@@H]1OC(C)=O`, the inhibition was -8%.
`C[C@@H]1O[C@@H](O[C@H]2[C@H](Oc3c(-c4ccc(O)cc4)oc4cc(O)cc(O)c4c3=O)O[C@H](CO)[C@@H](O)[C@@H]2O)[C@H](O)[C@H](O)[C@H]1O` has an inhibition of -0.3% and 0.01%.
`CCCCCCCCCCCCCCCCCCCCCCCCC` has an inhibition of 13%.
The inhibition of `Nc1ccc(O)c(C(=O)O)c1` is reported as 21%.
The inhibition of `C[C@@H]1CC[C@]2(C(=O)O[C@@H]3O[C@H](CO)[C@@H](O)[C@H](O)[C@H]3O)CC[C@]3(C)C(=CC[C@@H]4[C@@]5(C)CC[C@H](O)[C@](C)(C(=O)O)[C@@H]5CC[C@]43C)[C@@H]2[C@]1(C)O` is reported as 0%.
With `C[C@@H]1C(=O)O[C@H]2[C@@H](O)[C@@]34[C@H]5C[C@@H](C(C)(C)C)[C@]36[C@@H](OC(=O)[C@@H]6O)O[C@@]4(C(=O)O5)[C@@]12O` the inhibition was -18%.
